# Measured values collected from several papers.
# Compare with care: the assays were run in different laboratories. Several values in a cell are separate wells, animals, samples, runs or records. ± gives the spread as reported.
Compound,tested on,assay,test system,conditions,how to read,endpoint,result
NC[C@@H](OCC(=O)N1CCC[C@H](C(=O)NCc2nc(-c3ccc(C(F)(F)F)cc3)cs2)C1)c1ccccc1,Plasmodium falciparum,SYBR Green growth,"asexual blood-stage parasites, 3D7",72 h,,EC50,250 ± 76 nM
CC(=O)NCCc1c[nH]c2ccc(O)cc12,,"binding, MIDAS equilibrium dialysis LC-MS",A2AR-BRIL thermostabilized,concentration not given,relative to: no-protein control,log2 fold change,0.161
COc1cnc2cccc(N3CCc4c(cc(Cn5ccnc5C)cc4-c4cn(C)nc4C(F)(F)F)C3=O)c2c1,ZR-75-30,"cell growth, inhibitor",,120 h,,EC50,11 nM
Cc1cc(Nc2ncc(Cl)c(Nc3ccccc3S(=O)(=O)C(C)C)n2)c(OC(C)C)cc1C1CCNCC1,CLB-BAR,"phosphoproteomics LC-MS/MS, measured: FAM59B phosphorylation",,"200 nM, 60 min",relative to: untreated,log2 fold change,-2.15
O=C(O)CNC(=O)Cc1ccccc1,,,"ventricular cardiomyocytes, C57BL/6 mouse","dose not given, 0.756 s",,sarcomere length,1.72 µm
CCn1cc(-c2cc(Cn3ccoc3=N)cc3c2CCN([C@@H](C)c2cc(OC)ccn2)C3=O)c(C(F)(F)F)n1,RERF-LC-MS,"cell growth, inhibitor",,120 h,,EC50,8390 nM
O=C(/C=C/C=C/C=C/C1CCCCC1)NC1=C[C@@](O)(/C=C/C=C/C=C/C(=O)NC2=C(O)CCC2=O)[C@@H]2O[C@@H]2C1=O,sngm,"cell growth, inhibitor, CellTiter-Glo luminescence",,78 h,relative to: day 0 cell count,GI50,18800 nM
NCc1[nH]cc(CCC(=O)O)c1CC(=O)O,,"binding, MIDAS equilibrium dialysis LC-MS",A2AR-BRIL thermostabilized,concentration not given,relative to: no-protein control,log2 fold change,-0.03
OC(CCN1CCCCC1)(c1ccccc1)C1CC2C=CC1C2 (stereo not shown),,resting-state EEG,healthy elderly humans,"oral, 2 mg, eyes closed, LS mean",,"EEG power, alpha, Fz-Cz",7.1 µV²
O=C(O)c1cc(O)ccc1O,,"binding, MIDAS equilibrium dialysis LC-MS",A2AR-BRIL thermostabilized,concentration not given,relative to: no-protein control,log2 fold change,-0.0954
O=C(NCc1nc(-c2ccccc2)cs1)[C@H]1CCCN(C(=O)COCC2CC2)C1,Plasmodium falciparum,SYBR Green growth,"asexual blood-stage parasites, 3D7",72 h,,EC50,72 ± 1 nM
Cc1ncc(COP(=O)(O)O)c(C=O)c1O,,"binding, MIDAS equilibrium dialysis LC-MS",A2AR-BRIL thermostabilized,concentration not given,relative to: no-protein control,log2 fold change,0.573
CSc1cc(Oc2ccnc3[nH]c(=O)cnc23)ccc1NC(=O)Nc1cc(C(C)(C)C)nn1-c1ccccc1,patient-derived cell line,"RPPA, measured: phosphorylated ribosomal protein S6",human,"1 µM, 4 h",relative to: DMSO,phospho ratio,0.4
Cn1cc(-c2ccc(-c3cncc(Cl)c3N3CCC4(CCNC4=O)CC3)cc2)cn1,COLO 205,"gene expression, microarray, measured: SAT1 (SSAT) mRNA",,"concentration not given, 2 h",relative to: untreated cells,log2 fold change,4.06
CCn1cc(-c2cc(Cn3ccnc3)cc3c2CCN([C@H](c2cc(OC)ccn2)C2CC2)C3=O)c(C(F)(F)F)n1,LMSU,cell growth,,120 h,,EC50,> 30000 nM
N#Cc1ccc2c(c1)[C@H]1CCCN(C(=O)c3ccc4[nH]cnc4c3)[C@H]1C2,,,"human, plasma","360 mg, day 15",,fasting plasma glucose,161 mg/dL
O=C(O)CC(C(=O)O)C(O)C(=O)O (racemic),,"binding, MIDAS equilibrium dialysis LC-MS",A2AR-BRIL thermostabilized,concentration not given,relative to: no-protein control,log2 fold change,-0.244
Nc1nc(-c2ccccc2)nc2[nH]nc(Nc3ccc(C(F)(F)F)cc3)c12,coxsackievirus B3,,"31-1-93, NMRI mice, CVB3 chronic myocarditis","oral, 100 mg/kg twice daily, day 8, dosed days 3 to 10, score scale 0 to 7",direction not given,clinical score,1.1
O=C(O)[C@H]1O[C@H](OP(=O)(O)OP(=O)(O)OC[C@H]2O[C@@H](n3ccc(=O)[nH]c3=O)[C@H](O)[C@@H]2O)[C@H](O)[C@@H](O)[C@@H]1O,,"binding, MIDAS equilibrium dialysis LC-MS",A2AR-BRIL thermostabilized,concentration not given,relative to: no-protein control,log2 fold change,-0.206
COC(C)(C)C(=O)N1CCC[C@H](C(=O)NCc2nc(-c3ccccc3)cs2)C1,Plasmodium falciparum,SYBR Green growth,"asexual blood-stage parasites, 3D7",72 h,,EC50,> 5000 nM
NCCOP(=O)(O)OP(=O)(O)OC[C@H]1O[C@@H](n2ccc(N)nc2=O)[C@H](O)[C@@H]1O,,"binding, MIDAS equilibrium dialysis LC-MS",A2AR-BRIL thermostabilized,concentration not given,relative to: no-protein control,log2 fold change,-0.245
CC(C)n1ncc2c(C(=O)NCC3(C)CNC3)cc(C3CC3)nc21,coxsackievirus A16,,RD,0.05 µM,,cell protection,2.26% and 2%
